Measurements gathered from unrelated publications.
Each numbered part is a random draw from the data of one study; scales do not carry over between parts. Substitutions count along the parent as printed.

Study 1 — technique: competition protein-binding microarray; form: double-stranded DNA, one strand shown; matrix: in vitro; concentration: 2 µM; together with: Pho4 competitor, 0.05 µM; reading: higher = stronger binding; quantity: fluorescence intensity; shared flanks, not repeated: … GTCTTGATTCGCTTGACGCTGCTG
Target: Centromere-binding protein 1, full length, His-tagged (CBF1, Saccharomyces cerevisiae, UniProt P17106, residues 1-351)
Chain of UniProt P17106 (whole entry, looked up): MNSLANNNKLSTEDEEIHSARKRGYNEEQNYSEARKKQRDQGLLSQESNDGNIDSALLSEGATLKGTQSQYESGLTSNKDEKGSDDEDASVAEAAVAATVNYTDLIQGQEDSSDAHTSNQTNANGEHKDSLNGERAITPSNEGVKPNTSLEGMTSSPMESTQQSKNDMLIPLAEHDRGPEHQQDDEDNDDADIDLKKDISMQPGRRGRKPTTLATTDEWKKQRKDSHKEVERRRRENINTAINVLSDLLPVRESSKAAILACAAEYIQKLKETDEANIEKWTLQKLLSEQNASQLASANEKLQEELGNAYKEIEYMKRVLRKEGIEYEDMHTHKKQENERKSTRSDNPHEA
Notes: whole 60-bp probe, lowest competitor level
CATACCCAACCTTGATATGTGGGTGAAGATATTTGT: 86.7 a.u.
CTTCTGTAAATTTGCAGTGTGGGTGGACGCGCCCCG: 68 a.u.
CTAACGAAGGTTTGGAAGGTGGGTGACAAGCCAAGT: 55.9 a.u.
CATACCCAACCTTGAGCCGTGGGTGAAGATATTTGT: 70.7 a.u.
ATTGGGATAACCAGGCACACGCTAATGCGAGATAGC: 73.9 a.u.
CGGGGTTAAGTTTGCCACGTGGGTGGCTTGCAGCAG: 580 a.u.
AGTTTCAGAGGTGGACACATGGGAGCCAACAGCTCA: 76.9 a.u.
CTATTGTCTTAGAATCACGTGGACCCTAGACTATAG: 3740 a.u.
GTTGTTGCTATCCATCACGTGATGGATTTTTCCGAG: 11900 a.u.

Study 2 — target: CCNE2, cyclin fold, Cln2 fusion (human); technique: yeast growth competition, sequencing; matrix: yeast; notes: weak parent motif; baseline: not given; reading: higher = stronger binding; quantity: normalised enrichment score
Starting sequence: FZR1 docking peptide (human); QDYERRLLRQIVI; partner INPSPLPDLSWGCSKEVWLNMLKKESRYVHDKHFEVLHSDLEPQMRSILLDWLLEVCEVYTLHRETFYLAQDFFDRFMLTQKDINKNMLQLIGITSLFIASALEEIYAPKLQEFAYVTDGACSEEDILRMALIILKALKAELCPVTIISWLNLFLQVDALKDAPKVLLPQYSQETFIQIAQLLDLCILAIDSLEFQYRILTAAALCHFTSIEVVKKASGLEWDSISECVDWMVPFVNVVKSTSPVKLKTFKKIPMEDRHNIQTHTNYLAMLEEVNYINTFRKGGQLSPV
R6A: 0.538
R5A: 0.182
I13A: 0.751
R9A: 0.231
D2A: 0.463
Q1A: 0.456
R5K L8F: 0.428

Study 3 — technique: protein-binding microarray; form: double-stranded DNA, one strand shown; matrix: in vitro; concentration: 2540 nM top; notes: 60-bp whole probe; together with: salmon DNA 0.4 mg/ml; baseline: random background probes; reading: higher = stronger binding; quantity: fitted relative affinity; shared flanks, not repeated: GCCTAGCAC … GTCTTGATTCGCTTGACGCTGCTG
Target: Interferon regulatory factor 3, full length, phosphomimetic (IRF3, Homo sapiens, UniProt Q14653, residues 1-427, S386D/S396D/S398D/S402D/T404D/S405D)
Construct (chain): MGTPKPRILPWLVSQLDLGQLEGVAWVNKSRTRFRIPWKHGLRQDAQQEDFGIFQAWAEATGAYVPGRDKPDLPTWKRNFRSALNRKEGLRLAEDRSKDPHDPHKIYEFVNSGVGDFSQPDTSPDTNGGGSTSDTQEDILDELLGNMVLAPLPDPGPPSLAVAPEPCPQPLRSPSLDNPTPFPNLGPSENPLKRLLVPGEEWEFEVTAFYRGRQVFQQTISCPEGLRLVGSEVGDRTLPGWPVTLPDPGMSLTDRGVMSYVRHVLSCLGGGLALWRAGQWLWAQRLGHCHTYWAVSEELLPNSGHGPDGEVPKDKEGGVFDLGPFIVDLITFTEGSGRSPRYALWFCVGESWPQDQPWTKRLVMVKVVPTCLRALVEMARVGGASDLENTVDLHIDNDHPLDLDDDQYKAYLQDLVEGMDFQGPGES
GACGGACTGGGTATGGGGACGTGCTAG: -0.703 z-score
TCATGAATGTGTCTTAAACTGTGCTAG: -0.209 z-score
CTTGCTTTTTAGATCGTCCCGTGCTAG: 1.19 z-score
TCAATTGTGCAATCTTAAACTGTGCTA: 0.633 z-score
GACGGTCTCGGTCTCGGGGCGTGCTAG: 1.07 z-score
TCAATCATTGTTTTCAGACTGTGCTAG: 0.655 z-score
TTAGGACTGCTCTTCCTTTAGTGCTAG: -0.301 z-score
GACGACATCGGGACTGGAGACGTGCTA: -0.56 z-score
TTAGGTTTCGGTCTCGGTTTGTGCTAG: 9.02 z-score
GACGGAATCGACTATCGGGACGTGCTA: 0.197 z-score
GACGGACTGGACTATCGGGACGTGCTA: -0.421 z-score
GTCGGTTTCCTTCTCCTGACGTGCTAG: 11.3 z-score
GCACTTTGGGAGGCCGAGGCGTGCTAG: -0.14 z-score
GACGGACTGCTTTTCGTGACGTGCTAG: -0.158 z-score
GACGGACTGGGGTTTCGGTACGTGCTA: 2.44 z-score
TGTGGACCTTGGGAGATTTCGTGCTAG: -0.895 z-score
TTTGGACTGGGACTGGGTTAGTGCTAG: -1.02 z-score
GACGGACTGCGGTTTCGGGACGTGCTA: 1.92 z-score
TCACATCTCTGTCCGTGACTGTGCTAG: 0.903 z-score
TAGATCGTCCCTTTGAGAGGGTGCTAG: 0.386 z-score
TCACCTTTGCCTCCAGGACTGTGCTAG: 0.442 z-score
GACGATCTCGGACTGGGGACGTGCTAG: 0.075 z-score

Study 4 — technique: DHFR PCA, deep sequencing; matrix: yeast; together with: (+)-ABA 0.032 µM; baseline: wild-type fitted maximum; reading: higher = stronger binding; quantity: relative binding score
Target: ABI1, truncated, D143A, DHFR fusion (Arabidopsis thaliana)
Notes: methotrexate growth selection, single substitutions
Starting sequence: PYL1, truncated, DHFR fusion (Arabidopsis thaliana); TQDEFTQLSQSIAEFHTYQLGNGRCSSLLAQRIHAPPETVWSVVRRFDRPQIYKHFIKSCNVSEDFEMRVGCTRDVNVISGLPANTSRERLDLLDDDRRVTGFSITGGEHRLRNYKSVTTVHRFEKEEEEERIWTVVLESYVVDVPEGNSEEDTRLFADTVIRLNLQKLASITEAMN; partner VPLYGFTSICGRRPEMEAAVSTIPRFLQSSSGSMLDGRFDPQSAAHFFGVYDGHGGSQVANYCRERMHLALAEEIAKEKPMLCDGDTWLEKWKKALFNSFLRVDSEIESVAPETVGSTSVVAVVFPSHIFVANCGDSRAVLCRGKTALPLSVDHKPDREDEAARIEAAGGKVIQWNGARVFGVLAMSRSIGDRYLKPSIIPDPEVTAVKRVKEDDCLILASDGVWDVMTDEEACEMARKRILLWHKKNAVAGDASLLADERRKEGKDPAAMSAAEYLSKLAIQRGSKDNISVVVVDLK
L82Y: 47.9%
D97I: 14.6%
I162G: 4.66%
V43N: -1.18%
P146T: 15.1%
V142C: 23%
W41H: -1.63%
V40A: -3.68%
S59H: 3.83%
C25G: -4.2%
I162F: -15.7%
D159P: -9.56%

Study 5 — technique: Sort-seq; item: YFP reporter; matrix: E. coli; notes: PhoQ-PhoP variant library; together with: 10 µM Mg2+; baseline: high Mg2+ state; reading: higher = stronger signaling; quantity: fold induction
Molecule: PhoQ, residues 284 288 289 292 302 303 SLKLQV
PhoP, residues 12 14 15 18 19 ICWRQ (Escherichia coli, UniProt P23836): 16.9
PhoP, residues 12 14 15 18 19 VHTVL (Escherichia coli, UniProt P23836): 9.74
PhoP, residues 12 14 15 18 19 TQCLL (Escherichia coli, UniProt P23836): 6.53

Some of these lines once more (study 2):
R5A: 0.182
D2A: 0.463
Q1A: 0.456
R6A: 0.538
